Assay results gathered from unrelated publications.
Cell line: MDA-MB-231

Compound | test | test system | setting | scale | quantity | value
CC(Cc1ccc(Cl)cc1)=C(c1ccc(Cl)cc1)c1ccc(OCCN(C)C)cc1 | – | – | – | – | GI50 | 4.27 µM
CN[C@@H](C)C(=O)N[C@H]1CN(C(=O)Cc2ccccc2)CC[C@H]2CC[C@@H](C(=O)NCc3ccc(C(F)(F)F)cc3)N2C1=O | caspase-8, caspase-3, PARP cleavage, western blot | – | 24 h | – | onset concentration | ≥ 1 µM
CC1(C)C(=CC=C2CCCC(C=CC3=[N+](CCCCCC(=O)O)c4ccccc4C3(C)C)=C2c2ccccc2)N(CCCCCC(=O)O)c2ccccc21 | – | serum-free medium | added: 250 µM bromosulfophthalein | relative to: no bromosulfophthalein | cellular uptake | decreased
FC(F)(F)c1cnc2[nH]cc(Cc3cccc(Oc4ccccc4)c3)c2c1 | cell growth or viability | – | 10 µM, 72 h | – | inhibition | 16%
CC(=O)O[C@H]1C(=O)[C@]2(C)[C@@H](OC(=O)[C@H](N)CSC3CC(=O)N(CCC(=O)Nc4ccc(-c5ccc(/N=N/c6ccc7c(S(=O)(=O)O)cc(S(=O)(=O)O)c(N)c7c6O)c(C)c5)cc4C)C3=O)C[C@H]3OC[C@@]3(OC(C)=O)[C@H]2[C@H](OC(=O)c2ccccc2)[C@]2(O)C[C@H](OC(=O)[C@H](O)[C@@H](NC(=O)c3ccccc3)c3ccccc3)C(C)=C1C2(C)C (stereo partly drawn) | flow cytometry | – | concentration not given, 4 h | – | cellular uptake | 35.6%
C=CC(OC(C)=O)c1ccccc1 (stereo not drawn) | cell growth or viability, MTT | – | – | – | IC20 | 31 µM
COc1ccc(C=CC(=O)c2cccc(O)c2)cc1 | Western blot | – | concentration not given, 48 h, added: estradiol 1 nM | – | cyclin A protein level | decreased
CC(C)C1=C(O)C(=O)C2=C(C1=O)[C@H](O)[C@@H](O)[C@H]1C(C)(C)CCC[C@]21C | cell growth or viability, SRB | – | 48 h | – | GI50 | > 100 µM
OC(c1cc(F)ccc1F)c1c[nH]c2ncc(C(F)(F)F)cc12 (stereo not drawn) | cell growth or viability | – | 10 µM, 72 h | – | inhibition | 21%
CC(=O)OCC1(O)C(Nc2cccc(C(C)=O)c2)C(N)C(NC(=O)N(C)C)(C(C)OC(C)=O)C1(C)O (stereo not drawn) | cell growth or viability | – | – | – | EC50 | 0.458 µM
CC(=C(c1ccc(O)cc1)c1ccc(Cl)cc1)c1ccc(Cl)cc1 | – | – | – | – | GI50 | 0.97 µM
Cc1ccc(C(C)C)cc1.O=C(N=P(c1ccccc1)(c1ccccc1)c1ccccc1)c1ccccn1.[Cl-].[Cl][Ru+] | Annexin V/PI flow cytometry | – | IC50, 24 h | – | apoptotic cells | 46%
CCCCCCCCCCCCCC(=O)N1CCC[C@H]1C(=O)N[C@@H](CO)C(=O)N[C@@H](CCC(N)=O)C(=O)N[C@@H](CO)C(=O)N[C@@H](CCCCNC(=O)c1ccc(Br)cc1)C(=O)N[C@@H](CO)C(=O)N[C@@H](CCCCNC(=O)c1ccc(Br)cc1)C(=O)N[C@@H](C)C(=O)O | annexin V/PI flow cytometry | – | 50 µM, 48 h | – | apoptotic cells | 54%
COC(=O)C1CCCN1C(=O)C(Cc1ccccc1)N(C)C(=O)CC(O)C(CC(C)C)NC(=O)C(CC(C)C)N(C)C(=O)C(CC(C)C)NC(=O)C(O)C(C)C (stereo not drawn) | RNA-seq pathway analysis, measured: unfolded protein response | – | 40 µM, 12 h | direction not given | pathway activation z-score | 2
N=C(N)NCCC[C@H](NC(=O)[C@H](Cc1c[nH]c2ccccc12)NC(=O)[C@H](CCC(N)=O)NC(=O)[C@H](Cc1c[nH]c2ccccc12)NC(=O)[C@H](CCCNC(=N)N)NC(=O)[C@H](Cc1c[nH]c2ccccc12)NC(=O)[C@H](CCC(N)=O)NC(=O)[C@H](Cc1c[nH]c2ccccc12)NC(=O)[C@@H](N)CCCNC(=N)N)C(N)=O | – | – | – | relative to: erythrocyte IC50 over MDA-MB-231 IC50 | selectivity ratio | > 1.3
O=C(Cc1ccccc1)Nc1nc2ccccc2n1Cc1ccccc1 | western blot, measured: HIF-1α | – | 10 µM, 24 h, normoxia | relative to: vehicle | protein level | 36%
CCC(C(=O)O)C1CCC(C)C(C(C)C(O)C(C)C(=O)C(CC)C2OC3(C=CC(=O)C4(CCC(C)(C5CCC(O)(CC)C(C)O5)O4)O3)C(C)CC2C)O1 (stereo not drawn) | MTT | – | added: benzhydroxamic acid 142.0 µM | – | combination index | 1.9
CC1(C)C(=CC=C2C[N+](C)(C)CC(C=CC3=[N+](CCCCCC(=O)O)c4ccccc4C3(C)C)=C2Cl)N(CCCCCC(=O)O)c2ccccc21 | – | – | added: FBS 10% | relative to: serum-free medium | cellular uptake | no effect
FC(F)(F)c1cnc2[nH]cc(Cc3ccc(OCc4ccccc4)cc3)c2c1 | cell growth or viability | – | 10 µM, 72 h | – | inhibition | 25%
C=CC(OC(C)=O)c1ccc(OC(C)=O)c(OC)c1 (stereo not drawn) | Western blot | – | IC50, 24 h | relative to: untreated | Bcl-xL protein decrease | 30 to 50%
N=C(N)NCCC[C@H](NC(=O)[C@H](Cc1c[nH]c2ccccc12)NC(=O)[C@H](CCC(N)=O)NC(=O)[C@@H](N)Cc1c[nH]c2ccccc12)C(=O)N[C@@H](Cc1c[nH]c2ccccc12)C(=O)N[C@@H](CCC(N)=O)C(=O)N[C@@H](Cc1c[nH]c2ccccc12)C(N)=O | – | – | – | relative to: MCF-12 IC50 over MDA-MB-231 IC50 | selectivity ratio | 1

Compound | test | test system | setting | scale | quantity | value
CCCCCCCCCCCCCCCOC(=O)/C=C/c1cc(O)c(O)c(OC)c1 | – | – | concentration not given, 24 h | relative to: untreated | caspase-3 activity | 90 % increase
OC(c1ccc(OCc2ccccc2)cc1)c1c[nH]c2ncc(C(F)(F)F)cc12 (stereo not drawn) | cell growth or viability | – | 10 µM, 72 h | – | inhibition | 28%
Cc1cccc(O)c1C(=O)OCC1(O)C(Nc2cccc3ccccc23)C(N)C(NC(=O)N(C)C)(C(C)O)C1(C)O (stereo not drawn) | cell growth or viability | – | – | – | EC50 | 1.84 µM
CC1OC2OC3C4=C(OC3(C)C12O)C(=O)c1c(O)cccc1C4=O (stereo not drawn) | annexin V/PI flow cytometry | – | 2 µg/mL, 48 h | – | early apoptotic cells | 49.7%
C=C1C(=O)OC2CC3=C[C@@H](C/C(C)=C/C(OC(=O)Cc4cccc5ccccc45)[C@H]12)OC3=O (stereo partly drawn) | flow cytometry | – | 3.8 µM, 48 h | – | G0/G1 phase cells | 39%
CC(=O)N[C@@H](Cc1ccc(O)cc1)CN(CC(=O)N[C@@H](CCCCN)CN(CC(=O)N[C@@H](Cc1ccccc1)CN(CC(=O)N[C@H]1CCCCNc2c(F)c(F)c(c(F)c2F)S(=O)(=O)c2c(F)c(F)c(c(F)c2F)NCCCC[C@@H](CN(CC(=O)N[C@@H](C)CN(CC(N)=O)S(C)(=O)=O)S(C)(=O)=O)NC(=O)CN(S(=O)(=O)Cc2ccccc2)C[C@H](CC(C)C)NC(=O)CN(S(=O)(=O)CCN)C1)S(=O)(=O)CC(C)C)S(=O)(=O)CCN)S(C)(=O)=O | cell growth or viability, CCK-8 | – | 72 h | – | GI50 | 8.7 µM
CC/C=C\C/C=C\C/C=C\C/C=C\C/C=C\C/C=C\CCC(=O)Nc1ccn(C2OC(CO)C(O)C2(F)F)c(=O)n1 (stereo not drawn) | NCI60 screen | – | – | – | TGI | 22.2 µM
[Ru+2].c1ccc(-c2ccc3c(n2)c2ncccc2c2nc4cc5ccccc5cc4nc32)nc1.c1ccc(-c2ccc3c(n2)c2ncccc2c2nc4cc5ccccc5cc4nc32)nc1 | cell growth or viability, MTT | – | dark | – | EC50 | > 25 µM
C=CC(OC(C)=O)c1cc(OC)c(OC(C)=O)c(OC)c1 (stereo not drawn) | Western blot | – | IC50, 24 h | relative to: untreated | cleaved PARP level | 1.8 fold
C[C@@H]1O[C@@H](OC(=O)/C=C/c2ccc(O)cc2)[C@H](OC(=O)/C=C/c2ccc(O)cc2)[C@H](O)[C@H]1O | wound healing | – | 10 µM, 24 h, added: HGF | – | cell migration | decreased
CCCCCCCCCCCCCC(=O)N1CCC[C@H]1C(=O)N[C@@H](CO)C(=O)N[C@@H](CCC(N)=O)C(=O)N[C@@H](CO)C(=O)N[C@@H](CO)C(=O)N[C@@H](CO)C(=O)N[C@@H](CCC(=O)O)C(=O)N[C@@H](C)C(=O)O | annexin V/PI flow cytometry | – | 50 µM, 48 h | – | apoptotic cells | 30%
COc1ccc(OCC(=O)c2ccc(O)c(C)c2O)cc1 | cell growth or viability, MTT | – | 100 µM, 48 h | – | inhibition | 99%
N=C(N)NCCC[C@H](NC(=O)[C@H](Cc1c[nH]c2ccccc12)NC(=O)[C@H](CCC(N)=O)NC(=O)[C@H](Cc1c[nH]c2ccccc12)NC(=O)[C@H](CCCNC(=N)N)NC(=O)[C@H](Cc1c[nH]c2ccccc12)NC(=O)[C@H](CCC(N)=O)NC(=O)[C@@H](N)Cc1c[nH]c2ccccc12)C(N)=O | – | – | – | relative to: MCF-12 IC50 over MDA-MB-231 IC50 | selectivity ratio | > 1
CCCCCCCCC/C=C/C=C/C(=O)N[C@H](C(=O)N[C@H]1C[C@@H](O)CCNC(=O)/C=C/[C@H](C)NC1=O)[C@@H](C)O | trypan blue cell counting | – | 2 days | – | antiproliferative concentration | 0.25 µM
C=C[C@H](OC(C)=O)c1ccc(OC(C)=O)cc1 | Western blot | – | IC50, 24 h | relative to: untreated | Bax protein level | 6.2 fold
CCCCCCCCCCCCCCCOC(=O)/C=C/c1cccc(O)c1 | AO-PI flow cytometry | – | IC50, 24 h | – | late apoptotic cells | 27.6%
FC(F)(F)c1cccc(Cc2c[nH]c3ncc(C(F)(F)F)cc23)c1 | cell growth or viability | – | 10 µM, 72 h | – | inhibition | 29%
C/C(=N\N(c1ccccc1)c1ccccc1)c1ccc(O)cc1 | flow cytometry PI | – | 50 µM, 48 h | – | S phase cells | 25.8%
C[C@@H]1O[C@H]2O[C@@H]3C4(O)C(=O)c5cccc(O)c5C(=O)C4(O)O[C@]3(C)[C@]21O (stereo partly drawn) | cell growth or viability, MTT | – | 48 h | – | EC50 | 23.5 µg/mL
FC1(F)Oc2ccc(Cc3c[nH]c4ncc(C(F)(F)F)cc34)cc2O1 | cell growth or viability | – | 10 µM, 72 h | – | inhibition | 20%
N=C(N)NCCC[C@H](NC(=O)[C@H](Cc1c[nH]c2ccccc12)NC(=O)[C@H](CCC(N)=O)NC(=O)[C@H](Cc1c[nH]c2ccccc12)NC(=O)[C@@H](N)CCCNC(=N)N)C(=O)N[C@@H](Cc1c[nH]c2ccccc12)C(=O)N[C@@H](CCC(N)=O)C(=O)N[C@@H](Cc1c[nH]c2ccccc12)C(N)=O | – | – | – | relative to: MCF-12 IC50 over MDA-MB-231 IC50 | selectivity ratio | > 1
